Assay results pooled from the literature.
Each line is one published result; not all experiments were run side by side. Several values in a cell are separate wells, animals, samples, runs or records. ± marks the error that the study gave.

CC(C)C[C@H](NC(=O)[C@@H]1CCCN1C(=O)[C@H](CCCCN)NC(=O)[C@@H](N)CO)C(=O)N1CCC[C@H]1C(=O)N[C@@H](CCC(=O)O)C(=O)N[C@H](C(=O)N[C@H](C(=O)N[C@@H](CC(=O)O)C(=O)N[C@@H](CCC(=O)O)C(=O)N[C@@H](Cc1ccc(O)cc1)C(=O)N[C@@H](Cc1cn(CCOCCOCCOCCNC(=O)CCc2ccc(O)c(CN(CCN(CC(=O)O)Cc3cc(CCC(=O)NCCCC[C@H](NC(=O)N[C@@H](CCC(=O)O)C(=O)O)C(=O)O)ccc3O)CC(=O)O)c2)nn1)C(=O)O)[C@@H](C)O)C(C)C [gallium-68 labelled]  SUV (NMRI nu/nu mouse, LNCaP xenograft, femur; 135.34 nmol/kg, low molar activity): 0.04 g/g
CC(C)C[C@@H]1NC(=O)[C@H](C(C)C)NC(=O)[C@H](CO)NC(=O)CNC(=O)CNC(=O)[C@H](CCCNC(=N)N)NC(=O)[C@@H]2CCCN2C(=O)[C@@H](NC(=O)CC[C@H](NC(=O)c2ccc(N(C)Cc3cnc4nc(N)nc(N)c4n3)cc2)C(=O)O)C(C)(C)SSC[C@@H](C(=O)O)NC(=O)CNC(=O)[C@H]([C@@H](C)O)NC(=O)[C@H](C(C)C)NC1=O  degradation rate constant (HPLC; NaOH buffer; pH 12.0, 70 °C): 0.074 h⁻¹
C=Cc1c(C)c2cc3nc(c4c5[nH]c(cc6nc(cc1[nH]2)C(C)=C6CC)c(C)c5C(=O)C4)[C@@H](CCC(=O)NCC(=O)N1CCC[C@H]1C(=O)N[C@@H](CC(C)C)C(=O)NCC(=O)N[C@@H](Cc1ccccc1)C(=O)N[C@@H](CCCNC(=N)N)C(=O)N[C@H](C(=O)NCC(=O)N[C@@H](CCCCNC(=O)CCCN(C)c1ccc(/N=N/c2ccc4nc5ccc(N(CC)CC)cc5[n+](-c5ccccc5)c4c2)cc1)C(N)=O)C(C)C)[C@@H]3C  penetration depth (C57BL/6J mouse, DMM osteoarthritis model, knee articular cartilage; intra-articular, 6 h; baseline: cartilage thickness): ~50%
CC(C)C[C@H](NC(=O)[C@H](Cc1ccc(O)cc1)NC(=O)[C@@H](CCCNC(=N)N)NC(=O)[C@@H](CO)NC(=O)[C@H](Cc1ccccc1)NC(=O)[C@H](CC1CCCCC1)NC(=O)[C@H](CC(=O)O)NC(=O)CCC(C(=O)O)N1CCCN2CCN(CCCN(CC(=O)O)CC2)CC1)C(=O)N[C@@H](Cc1c[nH]c2ccccc12)C(=O)N[C@@H](CO)C(=O)O (stereo partly shown) [copper-64 labelled]  tissue uptake (female NMRI nude mice, tumor; 22 h p.i.): 2 ± 0.3 %ID/g
CCCC[C@H](NC(=O)[C@H](Cc1cccs1)NC(=O)[C@H](Cc1c[nH]cn1)NC(=O)CCNC(=O)[C@@H](NC(=O)[C@H](C)NC(=O)[C@H](Cc1c[nH]c2ccccc12)NC(=O)[C@H](CCC(N)=O)NC(=O)[C@H](Cc1cccs1)NC(=O)CN1CCC(NC(=O)CN(CCN(CCN(CC(=O)O)CC(=O)O)CC(=O)O)CC(=O)O)CC1)C(C)C)C(N)=O [indium-111 labelled]  intact peptide (radio-HPLC; Swiss nu/nu mice, blood; intravenous, 1 nmol, 15 min): 2.6% and 3.1%
N=C(N)NCCC[C@@H]1NC(=O)[C@H](CCCCNC(=O)CC[C@H](NC(=O)CCOCCOCCOCCOCCNC(=O)CC[C@H](NC(=O)CN2CCN(CC(=O)O)CCN(CC(=O)O)CCN(CC(=O)O)CC2)C(=O)NCCOCCOCCOCCOCCC(=O)N[C@@H](CCC(=O)NCCCC[C@@H]2NC(=O)[C@@H](Cc3ccccc3)NC(=O)[C@H](CC(=O)O)NC(=O)CNC(=O)[C@H](CCCNC(=N)N)NC2=O)C(=O)NCCCC[C@@H]2NC(=O)[C@@H](Cc3ccccc3)NC(=O)[C@H](CC(=O)O)NC(=O)CNC(=O)[C@H](CCCNC(=N)N)NC2=O)C(=O)NCCCC[C@@H]2NC(=O)[C@@H](Cc3ccccc3)NC(=O)[C@H](CC(=O)O)NC(=O)CNC(=O)[C@H](CCCNC(=N)N)NC2=O)NC(=O)[C@@H](Cc2ccccc2)NC(=O)[C@H](CC(=O)O)NC(=O)CNC1=O [indium-111 labelled]  tissue uptake (female athymic nude mice, lungs; intravenous, 3 µCi, 24 h, U-87 MG glioma xenograft): 0.96 ± 0.33 %ID/g
CSCC[C@H](NC(=O)[C@H](CC(C)C)NC(=O)[C@H](Cc1c[nH]cn1)NC(=O)CNC(=O)[C@@H](NC(=O)[C@H](C)NC(=O)[C@H](Cc1c[nH]c2ccccc12)NC(=O)[C@H](CCC(N)=O)NC(=O)CCCCCNC(=O)CNC(=O)CNC(=O)CNC(=O)CSC(C)=O)C(C)C)C(N)=O [technetium-99m labelled]  tissue uptake (Swiss mouse, heart; intravenous, 18.5 MBq, 30 min): 0.14 ± 0.05 %ID/g
N=C(N)NCCC[C@@H]1NC(=O)[C@H](CCCCNC(=O)CC[C@H](NC(=O)CCOCCOCCOCCOCCNC(=O)CN2CCN(CC(=O)O)CCN(CC(=O)O)CCN(CC(=O)O)CC2)C(=O)NCCCC[C@@H]2NC(=O)[C@@H](Cc3ccccc3)NC(=O)[C@H](CC(=O)O)NC(=O)CNC(=O)[C@H](CCCNC(=N)N)NC2=O)NC(=O)[C@@H](Cc2ccccc2)NC(=O)[C@H](CC(=O)O)NC(=O)CNC1=O [indium-111 labelled]  tissue uptake (female athymic nude mice, blood; intravenous, 3 µCi, 24 h, U-87 MG glioma xenograft): 0.07 ± 0.02 %ID/g
C/C=C(/C)C(=O)O[C@H]1C(C)=C2[C@H]([C@@H]1OC(=O)CCCCCCC)[C@@](C)(OC(C)=O)C[C@H](OC(=O)CCCCCCCCCCCNC(=O)[C@H](CO)NC(=O)[C@@H]1CCCN1C(=O)CNC(=O)[C@@H](NC(=O)[C@H](CCC(=O)O)NC(=O)CNC(=O)[C@H](CCCNC(=N)N)NC(=O)[C@@H](N)CCC(=O)O)[C@@H](C)O)[C@@]1(O)[C@H]2OC(=O)[C@@]1(C)O  Cmax (mouse, plasma; intravenous, dose not given, full-length prodrug): 35 to 40 µM
CCCC[C@H](NC(=O)CCCCCCCNC(=O)c1ccc(NN)nc1)C(=O)N[C@H]1CC(=O)NCCCC[C@@H](C(N)=O)NC(=O)[C@H](Cc2c[nH]c3ccccc23)NC(=O)[C@H](CCCNC(=N)N)NC(=O)[C@@H](Cc2ccccc2)NC(=O)[C@H](Cc2c[nH]cn2)NC1=O [technetium-99m labelled]  uptake (C57 mouse, B16/F1 melanoma, stomach; intravenous, 0.5 h): 2.52 ± 0.22 %ID/g
N=C(N)NCCC[C@@H]1NC(=O)[C@H](CCCCNC(=O)CCOCCOCCOCCOCCNC(=O)CN2CCN(CC(=O)O)CCN(CC(=O)O)CCN(CC(=O)O)CC2)NC(=O)[C@@H](Cc2ccccc2)NC(=O)[C@H](CC(=O)O)NC(=O)CNC1=O [indium-111 labelled]  tissue uptake (female athymic nude mice, heart; intravenous, 3 µCi, 4 h, U-87 MG glioma xenograft): 0.27 ± 0.03 %ID/g
CCCC[C@H](NC(=O)CNC(=O)CNC(=O)c1ccc(NN)nc1)C(=O)N[C@H]1CC(=O)NCCCC[C@@H](C(N)=O)NC(=O)[C@H](Cc2c[nH]c3ccccc23)NC(=O)[C@H](CCCNC(=N)N)NC(=O)[C@@H](Cc2ccccc2)NC(=O)[C@H](Cc2c[nH]cn2)NC1=O [technetium-99m labelled]  uptake (C57 mouse, B16/F1 melanoma, spleen; 2 h, added: L-lysine 12 mg): 0.09 ± 0.06 %ID/g
N=C(N)NCCC[C@@H]1NC(=O)[C@H](CCCCNC(=O)CCOCCOCCOCCOCCNC(=O)CC[C@H](NC(=O)CCOCCOCCOCCOCCNC(=O)CC[C@H](NC(=O)CN2CCN(CC(=O)O)CCN(CC(=O)O)CCN(CC(=O)O)CC2)C(=O)NCCOCCOCCOCCOCCC(=O)N[C@@H](CCC(=O)NCCOCCOCCOCCOCCC(=O)NCCCC[C@@H]2NC(=O)[C@@H](Cc3ccccc3)NC(=O)[C@H](CC(=O)O)NC(=O)CNC(=O)[C@H](CCCNC(=N)N)NC2=O)C(=O)NCCOCCOCCOCCOCCC(=O)NCCCC[C@@H]2NC(=O)[C@@H](Cc3ccccc3)NC(=O)[C@H](CC(=O)O)NC(=O)CNC(=O)[C@H](CCCNC(=N)N)NC2=O)C(=O)NCCOCCOCCOCCOCCC(=O)NCCCC[C@@H]2NC(=O)[C@@H](Cc3ccccc3)NC(=O)[C@H](CC(=O)O)NC(=O)CNC(=O)[C@H](CCCNC(=N)N)NC2=O)NC(=O)[C@@H](Cc2ccccc2)NC(=O)[C@H](CC(=O)O)NC(=O)CNC1=O [indium-111 labelled]  tissue uptake (female athymic nude mice, brain; intravenous, 3 µCi, 72 h, U-87 MG glioma xenograft): 0.09 ± 0.06 %ID/g
CC(=O)O[C@H]1C(=O)[C@@]2(C)[C@H]([C@H](OC(=O)c3ccccc3)[C@]3(O)C[C@H](OC(=O)[C@H](OC(=O)Cc4ccccc4SSCCC(=O)NCCOCCOCCNC(=O)CCC(=O)NCC(=O)NCC(=O)N[C@@H](CCCCN)C(=O)N[C@H](C(=O)N[C@@H](CCCCN)C(=O)N[C@H](C(=O)N[C@@H](CCCCN)C(=O)N[C@H](C(=O)N[C@@H](CCCCN)C(=O)N[C@H](C(=O)N4CCC[C@@H]4C(=O)N4CCC[C@H]4C(=O)N[C@H](C(=O)N[C@@H](CCCCN)C(=O)N[C@H](C(=O)N[C@@H](CCCCN)C(=O)N[C@H](C(=O)N[C@@H](CCCCN)C(=O)N[C@H](C(=O)N[C@@H](CCCCN)C(N)=O)C(C)C)C(C)C)C(C)C)[C@@H](C)O)C(C)C)C(C)C)C(C)C)C(C)C)[C@@H](NC(=O)c4ccccc4)c4ccccc4)C(C)=C1C3(C)C)[C@]1(OC(C)=O)CO[C@@H]1C[C@@H]2O  paclitaxel release (HEPES buffer; 5 min, pH 7.4, 37 °C, added: glutathione 5 mM): 73%
N=C(N)NCCC[C@@H]1NC(=O)[C@H](CCCCNC(=O)CNC(=O)CNC(=O)CNC(=O)CC[C@H](NC(=O)CCOCCOCCOCCOCCNC(=O)CC[C@H](NC(=O)CN2CCN(CC(=O)O)CCN(CC(=O)O)CCN(CC(=O)O)CC2)C(=O)NCCOCCOCCOCCOCCC(=O)N[C@@H](CCC(=O)NCC(=O)NCC(=O)NCC(=O)NCCCC[C@@H]2NC(=O)[C@@H](Cc3ccccc3)NC(=O)[C@H](CC(=O)O)NC(=O)CNC(=O)[C@H](CCCNC(=N)N)NC2=O)C(=O)NCC(=O)NCC(=O)NCC(=O)NCCCC[C@@H]2NC(=O)[C@@H](Cc3ccccc3)NC(=O)[C@H](CC(=O)O)NC(=O)CNC(=O)[C@H](CCCNC(=N)N)NC2=O)C(=O)NCC(=O)NCC(=O)NCC(=O)NCCCC[C@@H]2NC(=O)[C@@H](Cc3ccccc3)NC(=O)[C@H](CC(=O)O)NC(=O)CNC(=O)[C@H](CCCNC(=N)N)NC2=O)NC(=O)[C@@H](Cc2ccccc2)NC(=O)[C@H](CC(=O)O)NC(=O)CNC1=O [indium-111 labelled]  tumour to tissue ratio (athymic nude mice, female, U-87 MG glioma xenograft, tumour and liver; intravenous, 4 h; baseline: tumour over liver): 4.79 ± 0.58
CSCC[C@H](NC(=O)[C@H](CC(C)C)NC(=O)CNC(=O)[C@H](Cc1ccccc1)NC(=O)[C@H](Cc1ccccc1)NC(=O)[C@H](CCC(N)=O)NC(=O)[C@H](CCC(N)=O)NC(=O)[C@@H]1CCCN1C(=O)[C@H](CCCCNC(=O)c1ccc(-c2c3ccc(=[N+](C)C)cc-3oc3cc(N(C)C)ccc23)c(C(=O)[O-])c1)NC(=O)[C@@H]1CCCN1C(=O)[C@@H](N)CCCNC(=N)N)C(N)=O  emission maximum (PBS; 10 nM, pH 7.4): 575 nm

Repeated from above:
CC(C)C[C@@H]1NC(=O)[C@H](C(C)C)NC(=O)[C@H](CO)NC(=O)CNC(=O)CNC(=O)[C@H](CCCNC(=N)N)NC(=O)[C@@H]2CCCN2C(=O)[C@@H](NC(=O)CC[C@H](NC(=O)c2ccc(N(C)Cc3cnc4nc(N)nc(N)c4n3)cc2)C(=O)O)C(C)(C)SSC[C@@H](C(=O)O)NC(=O)CNC(=O)[C@H]([C@@H](C)O)NC(=O)[C@H](C(C)C)NC1=O  degradation rate constant (HPLC; NaOH buffer; pH 12.0, 70 °C): 0.074 h⁻¹
